Measurements gathered from unrelated publications.

Compound	test	test system	setting	measurement	value
Cc1cc(Nc2cc3ncccc3c(N[C@@H]3C[C@H]4CC[C@@H](C3)N4CCC#N)n2)n[nH]1	–	healthy human	oral, 10 mg multiple doses, 14 days	subjects with contact dermatitis	50%
Cc1cc(-c2nccc3c2ccn3CC(=O)Nc2ccc(-c3cnccn3)cn2)ccn1	–	human	MAD part, 20 mg once daily	subjects with TEAE leading to discontinuation	0%
C[C@@H](Oc1ccc(S(C)(=O)=O)cc1C(=O)N1C[C@@H]2C[C@]2(c2cc(C(F)(F)F)on2)C1)C(F)(F)F	–	human	oral plus intravenous microtracer, dose not given	subjects with related nervous disorders	16.7%
CC(C)(C(=O)N1CCOc2c(C#N)cncc2C1)C(F)F	refers to: phlebitis	human, both sexes	oral, 20 mg twice daily, 14 days, multiple ascending dose	subjects with TEAE	0%
CN1CCN(c2cccc3c2CCN(C(=O)/C=C/c2c(-n4cnnn4)ccc(Cl)c2F)[C@@H]3C(=O)Nc2ccc(C(=O)O)cc2)C(=O)C1	–	healthy human subjects	intravenous infusion, 3 mg/h, 5 days	subjects with infusion site pain	12.5%
CNC(=O)c1ccc(-c2cnc3ncc(Cc4ccc5ncccc5c4)n3n2)cc1F	–	healthy human subjects	oral, 200 mg, Hypertension, grade 3, all causality, added: itraconazole 200 mg/day	subjects with adverse event	7.4%
C[C@H]1CN(C(=O)CC#N)[C@]12CCN(c1ncnc3[nH]ccc13)C2	–	healthy human	oral, 6 mg single	subjects with TEAEs	25%
CC(C)n1c(Nc2cccnc2)nc2cnc(Nc3ccc(N4CCN(C)CC4)cc3)nc21	refers to: any TEAE	healthy human, male	oral, dose not given, CTCAE grade 1-3	subjects with TEAE	71.4%
